Assay results of several laboratories.
“And” joins repeats or separate records; there may be more than shown. Numbers after ± are the reported error.

SMILES | target or system | assay | system | setting | how to read | measurement | value
O=C(O)CCc1nccc2c3ccccc3n(Cc3ccc(Br)cc3)c12 |  |  | mouse, acute hyperuricaemia model, serum | oral, 2 mg/kg, individual animal data |  | serum uric acid | 517 µM and 278 µM and 492 µM and 437 µM
Cc1cn([C@H]2C=C[C@@H](CO)O2)c(=O)[nH]c1=O |  | barrier function (TEER) | human ileal GI microtissue EpiIntestinal-FT |  |  | IC15 | > 100 µM
CC1=CC(=O)CC(C)(C)[C@@]1(O)/C=C/C(C)=C\C(=O)O | OCI-Ly1 |  |  | 0.1 µM, 120 h |  | viability | 4.61%
O=C(O)CNC(=O)Cc1ccccc1 |  |  | ventricular cardiomyocytes, C57BL/6 mouse | dose not given, 0.448 s |  | sarcomere length | 1.72 µm
C[C@H]1C[C@H]2CSC(N)=N[C@@]2(c2nc(NC(=O)c3ccc(OC(F)F)cn3)cs2)CO1 |  | measured: Aβx-40 | healthy adults, plasma | 200 mg single dose, 8 h post-dose | reference: placebo | percent change from baseline | -66.9%
O=C(OC(C(F)(F)F)C(F)(F)F)N1CCN(Cc2cccc(Oc3ccccc3)c2)CC1 |  | PET | rhesus monkey, cerebellum | intravenous, 0.3 mg/kg, pretreatment, added: [18F]T-401 |  | tracer distribution volume | 1.32 mL/cm3
OC[C@H]1O[C@@H](c2ccc(Cl)c(Cc3ccc(O[C@H]4CCOC4)cc3)c2)[C@H](O)[C@@H](O)[C@@H]1O |  |  | Japanese type 1 diabetes patients | 10 mg, day 7, 168 h | reference: baseline | systolic blood pressure change | -2.7 mmHg
C=C1CC[C@H](OCCCNC(=O)CCOCCOCCOCCOCCOCCOCCOCCOCCOCCOCCOCCOCCOCCOCCOCCOCCOCCOCCOCCOCCOCCOCCOCCOCCOCCOCCOCCOCCOCCOCCOCCOCCOCCOCCOCCOCCNC(=O)CCN2C(=O)CC(SC[C@H](NC(=O)[C@H](CCCNC(=N)N)NC(=O)[C@@H]3CCCN3C(=O)[C@H](CCC(N)=O)NC(=O)[C@H](CC(C)C)NC(=O)[C@H](CCCCN)NC(=O)[C@H](C)NC(=O)[C@@H]3CCCN3C(=O)[C@@H]3CCCN3C(=O)[C@H](CCCCN)NC(=O)[C@H](CCCCN)NC(=O)[C@H](CO)NC(=O)[C@H](CCC(=O)O)NC(=O)[C@H](CCCCN)NC(=O)[C@H](CCCNC(=N)N)NC(=O)[C@H](CCC(N)=O)NC(=O)[C@H](CCC(N)=O)NC(=O)[C@@H](NC(=O)[C@H](CCCNC(=N)N)NC(=O)[C@H](CCC(N)=O)NC(=O)[C@H](Cc3c[nH]cn3)NC(=O)[C@H](CCC(=O)O)NC(=O)[C@@H]3CCCN3C(=O)[C@H](CO)NC(=O)[C@H](CC(C)C)NC(=O)[C@H](Cc3ccccc3)NC(=O)[C@H](CNC(=O)CCCCCCC)NC(=O)[C@H](CO)NC(=O)CN)C(C)C)C(=O)O)C2=O)C/C1=C/C=C1\CCC[C@]2(C)[C@@H]([C@H](C)CCCC(C)(C)O)CC[C@@H]12 (some centres unmarked) |  |  | C57BL/6J mice, LLC tumour-induced cachexia | daily | reference: pair-fed tumour-bearing vehicle | tumour-free body weight | decreased
N#Cc1ccc2c(-c3ccncc3)c(-c3ccc(F)cc3)nn2c1 |  | kinase binding, competitor, MIB/MS competition, measured: AKL1 | Candida albicans cell lysate | 10 µM | reference: DMSO | log2 fold change | 0.0697
Cc1noc(C)c1-c1cc(C(O)(c2ccccn2)c2ccccn2)c2nc(C3CC3)[nH]c2c1 |  | measured: CCR2 expression | human, peripheral blood | 1.4 mg, day 8, 1599 study |  | maximum inhibition | 50.9%
C=CCn1c(=O)c2cnc(Nc3ccc(N4CCN(C)CC4)cc3)nc2n1-c1ccc2c(n1)[C@@](O)(CC)CC2 |  |  | NCI-H1755, NOD/SCID mice, xenograft | oral, 80 mg/kg once daily, day 28 | reference: vehicle | tumour volume difference | 125 ± 8.3 mm3
CC(C)[C@H](NC(=O)[C@H](Cc1ccc(O)cc1)NC(=O)[C@H](Cc1ccc(O)cc1)NC(=O)[C@@H]1CCCN1C(=O)[C@H](CCC(=O)O)NC(=O)[C@H](CCC(=O)O)NC(=O)[C@H](Cc1c[nH]c2ccccc12)NC(=O)[C@@H]1CCCN1C(=O)[C@@H](NC(=O)[C@H](CCC(N)=O)NC(=O)c1ccc2c(c1)C(=O)OC21c2ccc(O)cc2Oc2cc(O)ccc21)C(C)C)C(=O)N[C@H](C(=O)N[C@@H](CCCCN)C(=O)N[C@@H](CCCCN)C(=O)N[C@@H](CO)C(=O)N[C@@H](CO)C(=O)NCC(=O)NCC(N)=O)C(C)C |  | nerve discrimination | head and neck surgery patients | 500 mg | reference: white light | surgeons rating improved | 14.2%
Cc1cc(C(C)(C)C)c(O)c(C(C)(C)C)c1 |  | Fe3+ reduction, ferricyanide reduction |  | 30 µg/mL |  | absorbance | 0.634 ± 0.049
CCc1oc2ccccc2c1C(=O)c1cc(Br)c(O)c(Br)c1 |  |  | mouse, acute hyperuricaemia model | 1 mg/kg |  | serum uric acid | 980 ± 208 µM
Cn1cc([C@H]2C[C@H]3CSC(N)=N[C@@]3(c3ccc(F)cc3F)CO2)cn1 |  | measured: Aβx-42 | Mus musculus wild-type, brain | subcutaneous, 10 mg/kg, 18 h |  | Aβ42 level | 0.53 ng/g
COCCOc1cnc2ccn([C@H](C)c3nnc4c(F)cc(-c5cnn(C)c5)cn34)c(=O)c2c1 |  |  | advanced solid tumour patients | dose not given |  | median duration of partial response | 147 days
Cc1n[nH]c2ccc(-c3cc(OC[C@@H](N)Cc4ccccc4)cnc3-c3ccoc3)cc12 |  | kinase binding, competitor, MIB/MS competition, measured: GIN4 | Candida albicans cell lysate | 1 µM | reference: DMSO | log2 fold change | -0.162
[Cl-].[Cl-].[Pt+2].[Ru+2].c1ccc(-c2nc3ccccc3nc2-c2ccccn2)nc1.c1cnc2c(c1)ccc1cccnc12.c1cnc2c(c1)ccc1cccnc12 |  | chloride substitution, UV-vis kinetics | aqueous buffer | pH 7.2, 35 °C, second substitution step, added: L-methionine |  | activation free energy | 99 ± 6 kJ/mol
COc1cc(Nc2ncc3c(n2)-c2ccc(Cl)cc2C(c2c(F)cccc2OC)=NC3)ccc1C(=O)O |  |  | mouse, NB-SD neuroblastoma xenograft | oral, 20.8 mg/kg, day 7 | reference: vehicle | relative tumour volume T/C | 1.48
O=C1Nc2cc3[nH]nc(-c4ccncc4)c3cc2CN1Cc1ccccc1 |  | RECIST v1.1 | human, relapsed or refractory advanced solid tumours | intravenous, 4.8 mg/kg |  | progressive disease, best response | 33%
CN(C)C(=O)c1cc2cnc(Nc3ccc(N4CCNCC4)cn3)nc2n1C1CCCC1 |  | RNA-seq GSEA, measured: HALLMARK_E2F_TARGETS | MB002 tumour | concentration not given, in vivo | reference: vehicle, direction not given | normalized enrichment score | 3.39

SMILES | target or system | assay | system | setting | how to read | measurement | value
CN[C@@H](C)C(=O)N[C@H]1CN(S(=O)(=O)c2cccc(S(=O)(=O)N3CC[C@H]4CC[C@@H](C(=O)NC(c5ccccc5)c5ccccc5)N4C(=O)[C@@H](NC(=O)[C@H](C)NC)C3)c2)CC[C@H]2CC[C@@H](C(=O)NC(c3ccccc3)c3ccccc3)N2C1=O |  | RECIST 1.1 | advanced pancreatic cancer patients | dose not given, no prior therapy, added: AG |  | objective response rate | 33.3%
NC/C(=C\F)COc1cccc(Cn2c(=S)[nH]c(=O)c3[nH]cnc32)c1 |  |  | rats, myocardial ischaemia/reperfusion (LAD ligation) | dose not given |  | ejection fraction | 61.1% and 78.3% and 76.2% and 70.9% and 81.7%
[Cl-].[Cl-].[Pt+2].[Ru+2].c1ccc(-c2nccnc2-c2ccccn2)nc1.c1cnc2c(c1)ccc1cccnc12.c1cnc2c(c1)ccc1cccnc12 |  | chloride substitution, UV-vis kinetics | aqueous buffer | pH 7.2, 35 °C, second substitution step, added: guanosine 5'-monophosphate |  | activation free energy | 88 ± 2 kJ/mol
N#Cc1ccn2c(-c3ccncc3)c(-c3ccc(F)cc3)nc2c1 |  | kinase binding, competitor, MIB/MS competition, measured: CTK1 | Candida albicans cell lysate | 10 µM | reference: DMSO | log2 fold change | -0.144
[Mn+2] |  | flow cytometry | conventional CD4-high T cells, BALB/c mouse | dose not given | reference: no Mn2+ | CD18-low cell fraction | 89.2 and 4.39 and 94.7 and 94.4 and 98.8 and 96.1 and 4.75
C=CC(=O)Nc1cc(Nc2ncc(C(=O)OC(C)C)c(-c3cn(C)c4ccccc34)n2)c(OC)cc1N(C)CCN(C)C |  | best overall response | patients with EGFR-mutant NSCLC | 160 mg once daily, dose escalation and expansion |  | objective response rate | 50%
O=S(=O)(NCCNC/C=C/c1ccc(Br)cc1)c1cccc2cnccc12 |  |  | mouse zygotes | 20 µM, 96 h post-hCG |  | embryos reaching 4-cell | 5% and 5.88%
CSCCNc1nc(SCCC(F)(F)F)nc2c1ncn2[C@@H]1O[C@H](COP(=O)(O)OP(=O)(O)C(Cl)(Cl)P(=O)(O)O)[C@@H](O)[C@H]1O |  | ADP-induced platelet aggregation, Multiplate aggregometry | human patients, whole blood | dose not given, 30 min, AUC above 46 | reference: patients | high residual platelet reactivity | 14.3%
CC(C)NCC(O)c1ccc(O)c(O)c1 (centres unmarked) |  |  | ventricular cardiomyocytes, C57BL/6 mouse | dose not given, 0.776 s |  | sarcomere length | 1.72 µm
COc1ccc(-c2cncc(N[C@@H](C)c3cccc(NC(=O)c4cncc(C)c4)c3)n2)cc1OC |  | measured: rno-miR-17-5p | rat SU5416/hypoxia model, lung | dose not given, unit not given | reference: SU5416/hypoxia vehicle | delta delta Ct | -0.745
COc1cc2nccc(Oc3ccc(NC(=O)c4cc5c(n(-c6ccccc6)c4=O)CCCC5=O)nc3)c2cc1OC |  |  | MOLM-13 luc/GFP, mouse xenograft AML | in feed, 0.004% in feed | reference: compound over control | hazard ratio | 0.0498
C[C@H](Oc1ccc(Br)cc1-c1ccon1)C(=O)O |  | muscle velocity recovery cycles | human, tibialis anterior muscle | 1200 mg single dose, 3.5 h |  | MVRC latency | 5.93 ms
COc1cc2cc(-c3ccc(CC(=O)Nc4cc(C(C)(C)C(F)(F)F)no4)cn3)cnc2cc1OC |  | RECIST v1.1 | RET-altered advanced solid tumour patients | oral, 100 mg once daily, phase I |  | objective response rate | 67%
CN[C@@H]1COc2c(S(=O)(=O)NC(=O)Nc3c4c(cc5c3CCC5)CCC4)cnn2C1 |  | measured: IL-1β | human participants, whole blood ex vivo | 150 mg single dose, 1 h, added: LPS/ATP | reference: baseline | inhibition | 92.5%
Cc1ccc([C@@H]2O[C@H](CO)[C@@H](O)[C@H](O)[C@H]2O)cc1Cc1ccc(-c2ccc(F)cc2)s1 |  |  | Japanese type 2 diabetes patients | 200 mg, day 17 | reference: day 1 | change in fasting serum insulin | -0.9 µU/mL
COC(=O)c1ccc2c(c1)NC(=O)/C2=C(\Nc1ccc(N(C)C(=O)CN2CCN(C)CC2)cc1)c1ccccc1 |  |  | rat, bleomycin lung fibrosis | oral, 60 mg/kg daily, day 14 |  | lung tissue density | inhibited
O=C(NS(=O)(=O)c1ccccc1)c1cc2ccccc2n1Cc1ccc(Br)c2ccccc12 |  |  | mouse, acute hyperuricemia model | dose not given |  | serum uric acid | 636 µM and 214 µM and 285 µM and 583 µM and 226 µM and 291 µM
Cc1nn(-c2nc3c(F)cc(F)cc3s2)c(O)c1C(c1ccc(C(F)(F)F)cc1)c1c(C)nn(-c2nc3c(F)cc(F)cc3s2)c1O |  |  | mouse, cerulein-induced acute pancreatitis, serum | 25 mg/kg |  | serum amylase activity | 52.7 mOD/min and 84.9 mOD/min and 88.9 mOD/min and 44.8 mOD/min and 136 mOD/min and 87.1 mOD/min and 142 mOD/min and 98.8 mOD/min
CC(C)[C@H](C(=O)Nc1ccc(C(=O)NO)cc1)c1ccccc1 | OCI-Ly1 |  |  | 0.5 µM, 120 h |  | viability | 27.4%
Cn1cc(Nc2nccc(-c3ccc4c(c3)CN(C3COC3)CC[C@H]4NC(=O)c3cn(C(C)(C)C)nn3)n2)cn1 |  | measured: Fcγ receptor-mediated phagocytosis | splenic B cells, mice | 30 mg/kg, IgD-activated in vivo | reference: vehicle, direction not given | pathway activation z-score | 2.5

A few entries again:
SMILES | target or system | assay | system | setting | how to read | measurement | value
COc1cc2cc(-c3ccc(CC(=O)Nc4cc(C(C)(C)C(F)(F)F)no4)cn3)cnc2cc1OC |  | RECIST v1.1 | RET-altered advanced solid tumour patients | oral, 100 mg once daily, phase I |  | objective response rate | 67%
CC(C)NCC(O)c1ccc(O)c(O)c1 (centres unmarked) |  |  | ventricular cardiomyocytes, C57BL/6 mouse | dose not given, 0.776 s |  | sarcomere length | 1.72 µm
COc1cc2nccc(Oc3ccc(NC(=O)c4cc5c(n(-c6ccccc6)c4=O)CCCC5=O)nc3)c2cc1OC |  |  | MOLM-13 luc/GFP, mouse xenograft AML | in feed, 0.004% in feed | reference: compound over control | hazard ratio | 0.0498
